Measured values of several laboratories.
Protocols differ between the studies behind these lines. ± gives the spread as reported.
Technique: steady-state kinetics
B1: putA E639A (Bradyrhizobium diazoefficiens, UniProt Q89E26); chain MPNIPPPFTAPYAPDDAEIAARLLPASHLSPPQEARIHRTATRLIEAIRKRDDRLGGVEDMLREFALSTKEGLALMVLAEALLRVPDARTADQFIEDKLGEGDFIHHETKSTAFLVNASAWALGLSARVIQPGETPDGTIGRLVKRLGAPAVRTATRQAMRLMGNHFVLGETIEQALERGKPRSGQKTRYSFDMLGEGARTAADARRYFDAYASAIETIGKAAGNHALPDRPGISVKLSALHPRFEAISRARVMVELVPQLLDLAQRAKAHDLNFTVDAEEADRLELSLDVIAATLADPSLKGWDGFGLAIQAYQKRASAVIDYVDALARAHDRKLMVRLVKGAYWDTEIKRAQERGLDGYPVFTRKAMTDLNYVACASKLLALRPRIFPQFATHNALTVATVLEMAEGSSGFEFQRLHGMGEALYEQLAKDHADIAYRTYAPVGSHRDLLAYLVRRLLENGANSSFVAQAADYRVPVPALLQRPADAIVRPQAAAHPRIPLPCDLFAPERRNSRGVEFGARTALDQLLTDVKAETGDLKPIADATPDQAHAAVAAARAGFAGWSRTPAGIRAAALEQAAHLLESRSAHFIALLQREGGKTLDDALSELREAADFCRYYAAQGRKLFGSETAMPGPTGASNALTMRGRGVFVAISPWNFPLAIFLGQVTAALMAGNSVVAKPAEQTPRIAREAVALLHEAGIPKSALYLVTGDGRIGAALTAHPDIAGVVFTGSTEVARSINRALAAKDGPIVPLIAETGGINAMIADATALPEQVADDVVTSAFRSAGQRCSALRLLFVQEDVADRMIEMVAGAARELKIGDPSDVATHVGPVIDVEAKQRLDAHIARMKTEARLHFAGPAPEGCFVAPHIFELTEAGQLTEEVFGPILHVVRYRPENLERVLRAIERTGYGLTLGVHSRIDDSIEAIIDRVQVGNIYVNRNMIGAVVGVQPFGGNGLSGTGPKAGGPHYLARFATEQTVTINTAAAGGNAALLAGEE
B2: BKGD (Homo sapiens, UniProt Q9H0W9); chain MACAEFSFHVPSLEELAGVMQKGLKDNFADVQVSVVDCPDLTKEPFTFPVKGICGKTRIAEVGGVPYLLPLVNQKKVYDLNKIAKEIKLPGAFILGAGAGPFQTLGFNSEFMPVIQTESEHKPPVNGSYFAHVNPADGGCLLEKYSEKCHDFQCALLANLFASEGQPGKVIEVKAKRRTGPLNFVTCMRETLEKHYGNKPIGMGGTFIIQKGKVKSHIMPAEFSSCPLNSDEEVNKWLHFYEMKAPLVCLPVFVSRDPGFDLRLEHTHFFSRHGEGGHYHYDTTPDIVEYLGYFLPAEFLYRIDQPKETHSIGRD
B3: cyc1 F96Y (Streptomyces coelicolor, UniProt Q9K499); chain MHAFPHGTTATPTAIAVPPSLRLPVIEAAFPRQLHPYWPKLQETTRTWLLEKRLMPADKVEEYADGLCYTDLMAGYYLGAPDEVLQAIADYSAWFYVWDDRHDRDIVHGRAGAWRRLRGLLHTALDSPGDHLHHEDTLVAGFADSVRRLYAFLPATWNARFARHFHTVIEAYDREFHNRTRGIVPGVEEYLELRRLTFAHWIWTDLLEPSSGCELPDAVRKHPAYRRAALLSQEFAAWYNDLCSLPKEIAGDEVHNLGISLITHHSLTLEEAIGEVRRRVEECITEFLAVERDALRFADELADGTVRGKELSGAVRANVGNMRNWFSSVYWFHHESGRYMVDSWDDRSTPPYVNNEAAGEK
B4: c3712 (Escherichia coli, UniProt A0A0H2VDD9); chain SNKIFTHSLPMRYADFPTLVDALDYAALSSAGMNFYDRRCQLEDQLEYQTLKARAEAGAKRLLSLNLKKGDRVALIAETSSEFVEAFFACQYAGLVAVPLAIPMGVGQRDSWSAKLQGLLASCQPAAIITGDEWLPLVNAATHDNPELHVLSHAWFKALPEADVALQRPVPNDIAYLQYTSGSTRFPRGVIITHREVMANLRAISHDGIKLRPGDRCVSWLPFYHDMGLVGFLLTPVATQLSVDYLRTQDFAMRPLQWLKLISKNRGTVSVAPPFGYELCQRRVNEKDLAELDLSCWRVAGIGAEPISAEQLHQFAECFRQVNFDNKTFMPCYGLAENALAVSFSDEASGVVVNEVDRDILEYQGKAVAPGAETRAVSTFVNCGKALPEHGIEIRNEAGMPVAERVVGHICISGPSLMSGYFGDQVSQDEIAATGWLDTGDLGYLLDGYLYVTGRIKDLIIIRGRNIWPQDIEYIAEQEPEIHSGDAIAFVTAQEKIILQIQCRISDEERRGQLIHALAARIQSEFGVTAAIDLLPPHSIPRTSSGKPARAEAKKRYQKAYAASLNVQESLA
B5: YdjH (Escherichia coli, UniProt P77493); chain MDNLDVICIGAAIVDIPLQPVSKNIFDVDSYPLERIAMTTGGDAINEATIISRLGHRTALMSRIGKDAAGQFILDHCRKENIDIQSLKQDVSIDTSINVGLVTEDGERTFVTNRNGSLWKLNIDDVDFARFSQAKLLSLASIFNSPLLDGKALTEIFTQAKARQMIICADMIKPRLNETLDDICEALSYVDYLFPNFAEAKLLTGKETLDEIADCFLACGVKTVVIKTGKDGCFIKRGDMTMKVPAVAGITAIDTIGAGDNFASGFIAALLEGKNLRECARFANATAAISVLSVGATTGVKNRKLVEQLLEEYEG
B6: carbamoyl phosphate synthetase large subunit M174E/M378E (Escherichia coli, UniProt P00968); chain PKRTDIKSILILGAGPIVIGQACEFDYSGAQACKALREEGYRVILVNSNPATIMTDPEMADATYIEPIHWEVVRKIIEKERPDAVLPTMGGQTALNCALELERQGVLEEFGVTMIGATADAIDKAEDRRRFDVAMKKIGLETARSGIAHTMEEALAVAADVGFPCIIRPSFTEGGSGGGIAYNREEFEEICARGLDLSPTKELLIDESLIGWKEYEMEVVRDKNDNCIIVCSIENFDAMGIHTGDSITVAPAQTLTDKEYQIMRNASMAVLREIGVETGGSNVQFAVNPKNGRLIVIEMNPRVSRSSALASKATGFPIAKVAAKLAVGYTLDELMNDITGGRTPASFEPSIDYVVTKIPRFNFEKFAGANDRLTTQEKSVGEVMAIGRTQQESLQKALRGLEVGATGFDPKVSLDDPEALTKIRRELKDAGADRIWYIADAFRAGLSVDGVFNLTNIDRWFLVQIEELVRLEEKVAEVGITGLNADFLRQLKRKGFADARLAKLAGVREAEIRKLRDQYDLHPVYKRVDTCAAEFATDTAYMYSTYEEECEANPSTDREKIMVLGGGPNRIGQGIEFDYCCVHASLALREDGYETIMVNCNPETVSTDYDTSDRLYFEPVTLEDVLEIVRIEKPKGVIVQYGGQTPLKLARALEAAGVPVIGTSPDAIDRAEDRERFQHAVERLKLKQPANATVTAIEMAVEKAKEIGYPLVVRPSYVLGGRAMEIVYDEADLRRYFQTAVSVSNDAPVLLDHFLDDAVEVDVDAICDGEMVLIGGIMEHIEQAGVHSGDSACSLPAYTLSQEIQDVMRQQVQKLAFELQVRGLMNVQFAVKNNEVYLIEVNPRAARTVPFVSKATGVPLAKVAARVMAGKSLAEQGVTKEVIPPYYSVKEVVLPFNKFPGVDPLLGPEMRSTGEVMGVGRTFAEAFAKAQLGSNSTMKKHGRALLSVREGDKERVVDLAAKLLKQGFELDATHGTAIVLGEAGINPRLVNKVHEGRPHIQDRIKNGEYTYIINTTSGRRAIEDSRVIRRSALQYKVHYDTTLNGGFATAMALNADATEKVISVQEMHAQIK
B7: msrA U16C (Clostridium oremlandii, UniProt A8MI53); chain MDTNQKLSIAVFALGCFWGPDAQFGSIKGVVSTRVGYAGGTTNNPSYYNLGDHSESIEIQYDANVITYGELLNIFWNLHNPVYETTNRQYMSRIFYLDDGQKSEALEMKRQIEAANGEKIYTEIVPLENFYLAEGYHQKYYLQNTTKLYQTLKAIYGGFGNLVRSTLAARMNGYIAGNLSIASLKEEMDLVELPEDQYEKVLSIVEEIK
B8: GMPS (Escherichia coli, UniProt P04079); chain MTENIHKHRILILDFGSQYTQLVARRVRELGVYCELWAWDVTEAQIRDFNPSGIILSGGPESTTEENSPRAPQYVFEAGVPVFGVCYGMQTMAMQLGGHVEASNEREFGYAQVEVVNDSALVRGIEDALTADGKPLLDVWMSHGDKVTAIPSDFITVASTESCPFAIMANEEKRFYGVQFHPEVTHTRQGMRMLERFVRDICQCEALWTPAKIIDDAVARIREQVGDDKVILGLSGGVDSSVTAMLLHRAIGKNLTCVFVDNGLLRLNEAEQVLDMFGDHFGLNIVHVPAEDRFLSALAGENDPEAKRKIIGRVFVEVFDEEALKLEDVKWLAQGTIYPDVIESAASATGKAHVIKSHHNVGGLPKEMKMGLVEPLKELFKDEVRKIGLELGLPYDMLYRHPFPGPGLGVRVLGEVKKEYCDLLRRADAIFIEELRKADLYDKVSQAFTVFLPVRSVGVMGDGRKYDWVVSLRAVETIDFMTAHWAHLPYDFLGRVSNRIINEVNGISRVVYDISGKPPATIEWE
Sequence of UniProt O60656 (whole entry, looked up): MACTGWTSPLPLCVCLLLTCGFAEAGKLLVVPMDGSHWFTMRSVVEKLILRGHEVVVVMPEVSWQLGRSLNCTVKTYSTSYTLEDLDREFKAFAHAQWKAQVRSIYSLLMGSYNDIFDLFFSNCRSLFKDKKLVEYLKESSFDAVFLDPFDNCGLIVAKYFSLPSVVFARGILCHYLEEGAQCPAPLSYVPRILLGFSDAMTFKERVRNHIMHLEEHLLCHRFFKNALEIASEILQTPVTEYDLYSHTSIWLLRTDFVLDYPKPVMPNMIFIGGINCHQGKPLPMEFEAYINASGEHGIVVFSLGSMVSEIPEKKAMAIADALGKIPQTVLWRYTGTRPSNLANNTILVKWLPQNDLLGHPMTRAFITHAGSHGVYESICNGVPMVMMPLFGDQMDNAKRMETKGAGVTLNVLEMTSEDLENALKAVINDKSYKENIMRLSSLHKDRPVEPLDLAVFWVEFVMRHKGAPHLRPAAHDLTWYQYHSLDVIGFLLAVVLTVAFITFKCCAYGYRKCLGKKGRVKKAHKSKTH
Sequence of UniProt Q59931 (whole entry, looked up): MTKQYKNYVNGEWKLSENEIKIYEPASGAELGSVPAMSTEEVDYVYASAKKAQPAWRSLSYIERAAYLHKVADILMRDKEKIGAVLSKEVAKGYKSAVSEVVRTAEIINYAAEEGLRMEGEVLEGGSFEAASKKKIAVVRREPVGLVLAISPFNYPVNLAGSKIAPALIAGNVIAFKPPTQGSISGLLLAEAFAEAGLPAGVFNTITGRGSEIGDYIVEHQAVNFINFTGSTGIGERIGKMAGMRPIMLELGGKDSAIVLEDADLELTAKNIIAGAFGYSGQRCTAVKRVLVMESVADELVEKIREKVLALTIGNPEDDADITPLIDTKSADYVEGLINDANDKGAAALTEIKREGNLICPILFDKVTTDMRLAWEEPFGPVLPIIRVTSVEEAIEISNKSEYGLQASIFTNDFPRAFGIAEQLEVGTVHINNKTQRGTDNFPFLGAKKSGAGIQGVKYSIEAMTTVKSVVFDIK
Sequence of UniProt P14780 (whole entry, looked up): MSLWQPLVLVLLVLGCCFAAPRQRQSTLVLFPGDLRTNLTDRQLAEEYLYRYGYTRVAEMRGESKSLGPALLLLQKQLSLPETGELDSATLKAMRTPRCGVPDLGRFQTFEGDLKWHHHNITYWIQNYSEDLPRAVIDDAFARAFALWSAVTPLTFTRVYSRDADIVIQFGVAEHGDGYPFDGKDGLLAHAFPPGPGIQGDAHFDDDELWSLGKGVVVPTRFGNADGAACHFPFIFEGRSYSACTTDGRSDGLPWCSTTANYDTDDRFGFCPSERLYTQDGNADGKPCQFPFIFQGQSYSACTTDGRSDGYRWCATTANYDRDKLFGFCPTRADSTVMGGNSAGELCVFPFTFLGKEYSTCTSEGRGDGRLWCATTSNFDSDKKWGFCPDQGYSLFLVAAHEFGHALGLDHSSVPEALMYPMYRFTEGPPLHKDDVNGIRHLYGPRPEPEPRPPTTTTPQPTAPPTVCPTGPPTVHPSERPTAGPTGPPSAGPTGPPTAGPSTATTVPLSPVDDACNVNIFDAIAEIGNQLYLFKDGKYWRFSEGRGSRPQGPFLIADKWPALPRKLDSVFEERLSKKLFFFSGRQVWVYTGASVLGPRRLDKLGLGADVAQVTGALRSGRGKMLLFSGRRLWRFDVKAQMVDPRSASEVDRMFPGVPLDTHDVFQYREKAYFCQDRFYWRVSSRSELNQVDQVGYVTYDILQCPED
Sequence of UniProt A1ZAW0 (whole entry, looked up): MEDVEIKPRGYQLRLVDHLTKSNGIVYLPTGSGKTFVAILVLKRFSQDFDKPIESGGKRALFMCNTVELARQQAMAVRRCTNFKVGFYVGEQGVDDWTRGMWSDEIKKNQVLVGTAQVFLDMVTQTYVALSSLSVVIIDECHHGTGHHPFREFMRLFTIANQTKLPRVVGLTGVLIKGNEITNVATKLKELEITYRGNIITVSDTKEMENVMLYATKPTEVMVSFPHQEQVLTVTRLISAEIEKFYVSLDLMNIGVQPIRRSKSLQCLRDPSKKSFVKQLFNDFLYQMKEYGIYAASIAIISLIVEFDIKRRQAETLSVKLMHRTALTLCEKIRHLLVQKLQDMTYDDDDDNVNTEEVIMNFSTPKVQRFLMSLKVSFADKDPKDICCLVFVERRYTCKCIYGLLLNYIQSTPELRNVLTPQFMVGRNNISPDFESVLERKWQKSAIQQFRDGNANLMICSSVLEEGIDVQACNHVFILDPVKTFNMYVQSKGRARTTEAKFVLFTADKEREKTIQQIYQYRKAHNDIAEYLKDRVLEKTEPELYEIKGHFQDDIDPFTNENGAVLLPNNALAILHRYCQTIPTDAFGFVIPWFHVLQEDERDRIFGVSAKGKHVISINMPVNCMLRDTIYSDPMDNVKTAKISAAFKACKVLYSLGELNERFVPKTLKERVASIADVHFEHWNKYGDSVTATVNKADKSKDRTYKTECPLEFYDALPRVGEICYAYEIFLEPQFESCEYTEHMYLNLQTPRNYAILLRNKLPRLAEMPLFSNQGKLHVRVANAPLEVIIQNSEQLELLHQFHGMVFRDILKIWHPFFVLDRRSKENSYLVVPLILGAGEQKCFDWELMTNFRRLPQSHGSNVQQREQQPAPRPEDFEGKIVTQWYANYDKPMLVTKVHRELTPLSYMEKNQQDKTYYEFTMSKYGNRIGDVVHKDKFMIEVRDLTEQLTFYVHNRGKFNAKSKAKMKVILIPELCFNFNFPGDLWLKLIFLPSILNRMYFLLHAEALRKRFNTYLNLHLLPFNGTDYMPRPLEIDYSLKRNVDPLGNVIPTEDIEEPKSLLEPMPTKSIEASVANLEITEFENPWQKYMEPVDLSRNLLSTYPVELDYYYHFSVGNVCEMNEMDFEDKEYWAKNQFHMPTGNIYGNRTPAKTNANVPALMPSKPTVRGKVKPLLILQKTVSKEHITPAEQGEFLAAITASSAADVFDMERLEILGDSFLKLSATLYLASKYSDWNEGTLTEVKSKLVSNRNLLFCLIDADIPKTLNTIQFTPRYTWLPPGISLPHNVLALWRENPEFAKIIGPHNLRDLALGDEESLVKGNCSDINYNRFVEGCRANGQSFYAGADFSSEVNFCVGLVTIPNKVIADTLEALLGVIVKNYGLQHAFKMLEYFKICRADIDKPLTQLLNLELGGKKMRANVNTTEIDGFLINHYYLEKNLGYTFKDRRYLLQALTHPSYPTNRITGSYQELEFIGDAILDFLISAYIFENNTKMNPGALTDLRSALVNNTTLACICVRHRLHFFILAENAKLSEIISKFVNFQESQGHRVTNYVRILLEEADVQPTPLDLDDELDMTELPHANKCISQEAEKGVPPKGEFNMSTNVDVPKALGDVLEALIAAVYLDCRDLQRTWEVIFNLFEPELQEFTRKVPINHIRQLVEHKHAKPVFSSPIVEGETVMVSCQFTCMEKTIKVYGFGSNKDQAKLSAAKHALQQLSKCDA

| Molecule | substrate | conditions | endpoint | result |
| --- | --- | --- | --- | --- |
| B1 (putA E639A) | O=C(O)[C@@H]1CCCN1 | pH 8, 23 °C | kcat | 1.95 ± 0.24 s⁻¹ |
| B2 (BKGD) | O=C(O)[C@@H](O)C(=O)[C@H](O)[C@@H](O)CO | 37 °C | kcat | 4.27 ± 0.304 s⁻¹ |
| gapN (Streptococcus mutans, UniProt Q59931) | NC(=O)c1ccc[n+]([C@@H]2O[C@H](COP(=O)(O)OP(=O)(O)OC[C@H]3O[C@@H](n4cnc5c(N)ncnc54)[C@H](OP(=O)(O)O)[C@@H]3O)[C@@H](O)[C@H]2O)c1 | pH 8, racemic G3P, cofactor varied, added: NADP+ | kcat | 22 ± 2 s⁻¹ |
| Dcr-2 (Drosophila melanogaster, UniProt A1ZAW0) | Nc1ncnc2c1ncn2[C@@H]1O[C@H](COP(=O)(O)OP(=O)(O)OP(=O)(O)O)[C@@H](O)[C@H]1O | pH 7.4, 25 °C, added: dsRNA, magnesium acetate 3.3 mM | kcat | 1.55 ± 0.233 s⁻¹ |
| UGT1A9 (Homo sapiens, UniProt O60656) | COc1ccccc1-c1oc2ccccc2c(=O)c1O | pH 7.4, 37 °C | Km | 0.21 µM |
| B3 (cyc1 F96Y) | CC(C)=CCC/C(C)=C/CC/C(C)=C/CO[P@@](=O)(O)OP(=O)(O)O | pH 6.5, 30 °C, added: MgCl2 10 mM | kcat | 0.00019 ± 1e-05 s⁻¹ |
| B4 (c3712) | CCCCCCCC(=O)O | pH 7.5, 30 °C | kcat | 0.00117 ± 0.000167 s⁻¹ |
| B5 (YdjH) | O=C(O)[C@H](O)[C@@H](O)[C@H](O)[C@H](O)CO | pH 7.4, 30 °C, KCl 100 mM, added: ATP 2.0 mM, MgCl2 5.0 mM | kcat | 0.025 ± 0.001 s⁻¹ |
| B6 | Nc1ncnc2c1ncn2[C@@H]1O[C@H](COP(=O)(O)OP(=O)(O)OP(=O)(O)O)[C@@H](O)[C@H]1O | pH 7.6, KCl 100 mM, added: glutamine 10 mM, ornithine 10 mM | kcat | 0.043 ± 0.002 s⁻¹ |
| B7 (msrA U16C) | CN(C)c1ccc(N=Nc2ccc(S(=O)(=O)N[C@@H](CC[S@+](C)[O-])C(=O)O)cc2)cc1 | pH 7.5, 37 °C, 50 mM NaCl, Km above tested range, added: 20 mM DTT reductant | kcat | 3.8 ± 0.3 s⁻¹ |
| MMP9 (Homo sapiens, UniProt P14780) | CSCC[C@H](NC(=O)CNC(=O)[C@H](CC(C)C)NC(=O)[C@@H]1CCCN1C(=O)CNC(C)=O)C(=O)N[C@@H](Cc1c[nH]cn1)C(=O)NCC(=O)N[C@@H](CCCCN)C(N)=O | – | kcat | 168 s⁻¹ |
| alanine aminopeptidase (Neisseria meningitidis, UniProt Q9JYV4) | NC(=O)Cc1cc(=O)oc2cc(NC(=O)[C@@H](N)CC(=O)OCc3ccccc3)ccc12 | pH 7.5, 37 °C | kcat | 3.64 ± 0.05 s⁻¹ |
| B8 (GMPS) | O=c1[nH]c(=O)c2ncn([C@@H]3O[C@H](COP(=O)(O)O)[C@@H](O)[C@H]3O)c2[nH]1 | apparent | kcat | 0.048 ± 0.003 s⁻¹ |

Repeated from above:
| Molecule | substrate | conditions | endpoint | result |
| --- | --- | --- | --- | --- |
| B3 (cyc1 F96Y) | CC(C)=CCC/C(C)=C/CC/C(C)=C/CO[P@@](=O)(O)OP(=O)(O)O | pH 6.5, 30 °C, added: MgCl2 10 mM | kcat | 0.00019 ± 1e-05 s⁻¹ |
